Experimental data of several laboratories.
Compare with care: the assays were run in different laboratories. Values joined by “and” are separate records of one study, mostly repeats; a detail may differ. ± marks the error that the study gave.
ache: Acetylcholinesterase (ache, Electrophorus electricus, UniProt O42275)
UniProt D0VWV4, sequence (whole entry, looked up): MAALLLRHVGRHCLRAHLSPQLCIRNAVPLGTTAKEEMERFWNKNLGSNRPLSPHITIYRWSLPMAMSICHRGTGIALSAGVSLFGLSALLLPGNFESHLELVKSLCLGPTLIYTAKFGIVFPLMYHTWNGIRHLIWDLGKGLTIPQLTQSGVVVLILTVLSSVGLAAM
UniProt Q007T0, sequence (whole entry, looked up): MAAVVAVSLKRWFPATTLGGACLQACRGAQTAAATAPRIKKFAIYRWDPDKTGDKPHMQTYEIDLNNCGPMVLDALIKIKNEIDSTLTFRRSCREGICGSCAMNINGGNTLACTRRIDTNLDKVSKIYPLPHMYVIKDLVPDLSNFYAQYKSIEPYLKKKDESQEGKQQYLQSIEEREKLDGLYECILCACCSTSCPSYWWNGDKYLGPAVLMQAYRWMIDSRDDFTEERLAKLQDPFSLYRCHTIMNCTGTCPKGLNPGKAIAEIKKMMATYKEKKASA
UniProt O42275, sequence (whole entry, looked up): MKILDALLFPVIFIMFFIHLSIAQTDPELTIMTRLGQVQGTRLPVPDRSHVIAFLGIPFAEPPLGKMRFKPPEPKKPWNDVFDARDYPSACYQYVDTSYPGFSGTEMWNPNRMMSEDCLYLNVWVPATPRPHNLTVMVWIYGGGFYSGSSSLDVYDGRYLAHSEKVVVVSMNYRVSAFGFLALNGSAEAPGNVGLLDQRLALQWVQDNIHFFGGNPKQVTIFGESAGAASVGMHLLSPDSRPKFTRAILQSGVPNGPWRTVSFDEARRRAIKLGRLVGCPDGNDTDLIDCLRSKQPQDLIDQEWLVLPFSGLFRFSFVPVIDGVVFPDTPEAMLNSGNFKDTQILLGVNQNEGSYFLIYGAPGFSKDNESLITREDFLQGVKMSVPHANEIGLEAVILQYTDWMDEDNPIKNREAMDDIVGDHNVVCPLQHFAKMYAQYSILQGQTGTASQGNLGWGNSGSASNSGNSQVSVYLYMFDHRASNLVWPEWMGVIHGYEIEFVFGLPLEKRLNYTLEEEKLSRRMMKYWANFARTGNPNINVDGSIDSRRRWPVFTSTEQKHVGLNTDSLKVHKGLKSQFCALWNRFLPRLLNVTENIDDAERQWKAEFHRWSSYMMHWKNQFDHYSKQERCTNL
UniProt A5GZW8, sequence (whole entry, looked up): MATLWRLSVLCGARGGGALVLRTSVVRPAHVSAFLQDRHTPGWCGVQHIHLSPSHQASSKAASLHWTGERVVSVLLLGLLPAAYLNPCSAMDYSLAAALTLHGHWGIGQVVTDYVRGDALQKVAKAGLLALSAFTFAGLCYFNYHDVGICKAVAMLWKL
UniProt Q9ULC6, sequence (whole entry, looked up): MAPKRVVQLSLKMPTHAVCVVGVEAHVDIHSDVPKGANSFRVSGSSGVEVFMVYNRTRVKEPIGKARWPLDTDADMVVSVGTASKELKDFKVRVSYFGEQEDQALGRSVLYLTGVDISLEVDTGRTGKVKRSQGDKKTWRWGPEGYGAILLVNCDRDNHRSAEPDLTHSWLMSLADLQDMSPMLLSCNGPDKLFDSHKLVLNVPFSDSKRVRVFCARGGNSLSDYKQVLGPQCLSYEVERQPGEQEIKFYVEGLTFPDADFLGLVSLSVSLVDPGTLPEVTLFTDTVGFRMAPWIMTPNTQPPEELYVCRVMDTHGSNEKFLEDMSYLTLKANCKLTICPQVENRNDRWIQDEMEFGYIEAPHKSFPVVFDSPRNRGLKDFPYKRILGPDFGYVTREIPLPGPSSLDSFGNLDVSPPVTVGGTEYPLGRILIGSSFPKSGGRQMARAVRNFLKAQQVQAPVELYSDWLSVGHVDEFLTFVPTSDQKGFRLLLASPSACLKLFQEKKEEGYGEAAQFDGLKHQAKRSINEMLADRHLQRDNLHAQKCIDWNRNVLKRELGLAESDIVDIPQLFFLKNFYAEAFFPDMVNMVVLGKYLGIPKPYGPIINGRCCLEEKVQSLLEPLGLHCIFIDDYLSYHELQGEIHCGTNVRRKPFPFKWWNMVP
UniProt Q9H4A3, sequence (whole entry, looked up): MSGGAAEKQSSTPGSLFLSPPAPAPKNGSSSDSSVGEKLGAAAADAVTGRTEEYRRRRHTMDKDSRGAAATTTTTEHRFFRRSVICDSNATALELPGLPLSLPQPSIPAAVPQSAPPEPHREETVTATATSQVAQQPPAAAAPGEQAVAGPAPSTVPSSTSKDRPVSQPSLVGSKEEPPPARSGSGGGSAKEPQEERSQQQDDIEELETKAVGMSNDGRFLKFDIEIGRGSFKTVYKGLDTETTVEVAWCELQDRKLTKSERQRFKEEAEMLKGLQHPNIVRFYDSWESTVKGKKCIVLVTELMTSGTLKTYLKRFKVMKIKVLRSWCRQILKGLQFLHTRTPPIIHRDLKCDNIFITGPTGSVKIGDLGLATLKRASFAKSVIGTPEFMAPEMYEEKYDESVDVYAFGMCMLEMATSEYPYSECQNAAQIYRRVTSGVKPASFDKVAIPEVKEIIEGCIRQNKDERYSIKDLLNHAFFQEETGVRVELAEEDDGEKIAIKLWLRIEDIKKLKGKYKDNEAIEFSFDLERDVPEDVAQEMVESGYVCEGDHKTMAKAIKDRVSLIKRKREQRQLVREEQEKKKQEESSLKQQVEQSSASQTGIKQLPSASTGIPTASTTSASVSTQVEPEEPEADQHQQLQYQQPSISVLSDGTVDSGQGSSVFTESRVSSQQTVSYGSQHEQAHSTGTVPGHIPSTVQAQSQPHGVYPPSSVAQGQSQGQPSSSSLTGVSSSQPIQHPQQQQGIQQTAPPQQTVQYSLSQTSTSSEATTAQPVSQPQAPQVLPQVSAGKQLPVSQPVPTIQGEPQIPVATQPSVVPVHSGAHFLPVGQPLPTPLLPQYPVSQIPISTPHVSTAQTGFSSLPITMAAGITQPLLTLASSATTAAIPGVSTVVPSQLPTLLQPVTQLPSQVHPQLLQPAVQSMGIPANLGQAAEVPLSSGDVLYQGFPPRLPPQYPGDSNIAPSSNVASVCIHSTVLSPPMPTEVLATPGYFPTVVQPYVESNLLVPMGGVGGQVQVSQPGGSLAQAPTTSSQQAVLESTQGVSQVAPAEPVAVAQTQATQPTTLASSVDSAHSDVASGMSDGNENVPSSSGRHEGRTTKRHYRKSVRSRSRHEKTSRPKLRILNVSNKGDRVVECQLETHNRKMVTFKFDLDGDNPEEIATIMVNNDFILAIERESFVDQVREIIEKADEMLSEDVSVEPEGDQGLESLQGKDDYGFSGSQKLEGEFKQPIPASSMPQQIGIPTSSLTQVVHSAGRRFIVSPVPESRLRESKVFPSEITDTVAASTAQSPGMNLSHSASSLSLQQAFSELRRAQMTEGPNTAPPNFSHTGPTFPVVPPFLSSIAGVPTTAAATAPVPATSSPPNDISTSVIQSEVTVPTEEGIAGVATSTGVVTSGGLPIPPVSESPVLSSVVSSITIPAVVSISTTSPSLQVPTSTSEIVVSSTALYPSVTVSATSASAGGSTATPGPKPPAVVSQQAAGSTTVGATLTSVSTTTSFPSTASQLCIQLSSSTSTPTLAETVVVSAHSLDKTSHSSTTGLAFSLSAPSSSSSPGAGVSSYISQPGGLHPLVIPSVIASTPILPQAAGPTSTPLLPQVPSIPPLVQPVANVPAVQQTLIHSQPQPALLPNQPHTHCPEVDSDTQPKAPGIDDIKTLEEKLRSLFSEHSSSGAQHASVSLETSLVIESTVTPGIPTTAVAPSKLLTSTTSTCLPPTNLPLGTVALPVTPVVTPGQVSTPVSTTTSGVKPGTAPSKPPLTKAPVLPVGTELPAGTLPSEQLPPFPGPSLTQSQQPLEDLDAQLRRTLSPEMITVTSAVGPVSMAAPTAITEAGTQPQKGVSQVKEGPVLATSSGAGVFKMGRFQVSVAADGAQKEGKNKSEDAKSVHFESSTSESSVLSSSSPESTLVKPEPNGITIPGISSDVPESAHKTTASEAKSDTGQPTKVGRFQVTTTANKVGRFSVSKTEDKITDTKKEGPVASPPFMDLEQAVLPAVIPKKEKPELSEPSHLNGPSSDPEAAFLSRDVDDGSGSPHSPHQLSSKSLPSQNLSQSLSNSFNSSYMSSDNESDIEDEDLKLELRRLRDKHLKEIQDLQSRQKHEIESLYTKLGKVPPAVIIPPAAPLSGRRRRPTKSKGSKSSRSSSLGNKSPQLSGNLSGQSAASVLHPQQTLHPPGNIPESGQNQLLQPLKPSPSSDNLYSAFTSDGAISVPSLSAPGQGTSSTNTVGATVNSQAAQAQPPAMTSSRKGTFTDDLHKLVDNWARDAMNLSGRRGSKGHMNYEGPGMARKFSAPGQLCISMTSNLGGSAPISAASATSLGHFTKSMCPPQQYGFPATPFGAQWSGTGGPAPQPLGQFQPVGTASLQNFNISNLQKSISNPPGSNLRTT
UniProt P51956, sequence (whole entry, looked up): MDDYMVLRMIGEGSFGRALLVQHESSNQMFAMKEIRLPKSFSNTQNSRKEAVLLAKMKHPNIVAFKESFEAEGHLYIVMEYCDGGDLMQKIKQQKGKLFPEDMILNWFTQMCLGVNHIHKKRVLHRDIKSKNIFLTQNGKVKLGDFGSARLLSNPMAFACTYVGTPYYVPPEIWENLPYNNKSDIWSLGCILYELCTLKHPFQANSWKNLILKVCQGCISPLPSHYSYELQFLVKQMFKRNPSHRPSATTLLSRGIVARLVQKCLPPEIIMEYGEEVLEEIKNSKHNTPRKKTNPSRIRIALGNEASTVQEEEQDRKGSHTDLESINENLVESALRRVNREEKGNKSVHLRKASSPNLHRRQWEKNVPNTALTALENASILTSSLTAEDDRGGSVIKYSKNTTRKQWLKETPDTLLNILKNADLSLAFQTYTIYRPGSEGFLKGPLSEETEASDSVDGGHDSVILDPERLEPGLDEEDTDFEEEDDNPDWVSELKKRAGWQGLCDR

SMILES = CN(C)CCCSC(=S)N1CCN(C(=O)/C=C/c2coc3ccccc3c2=O)CC1; target = Nucleoprotein (N, Tomato spotted wilt virus, UniProt P25999, R94A); assay = binding, microscale thermophoresis; conditions = 0.4883 µM; scale = dose series; endpoint = MST response; value = 842 a.u.
SMILES = O=C1NC(=O)c2c1c1cc(F)c[n+]3c1c1c2c2cc(O)ccc2[n]1[Ru-4]312([N]=C=S)[S+]3CC[S+]1CC[S+]2CC3 (centres unmarked); target = PRKCD (Homo sapiens, UniProt Q05655); assay = enzyme activity; conditions = 100 nM, human enzyme, with: 10 µM ATP; scale = reference: untreated; endpoint = remaining activity; value = 73%
SMILES = CCc1nnc(-c2c(OC)cc(-c3cnc4cc(-c5cnn(C)c5)ccn34)cc2OC)o1; target = SLC6A2 (Homo sapiens, UniProt P23975); assay = antagonist radioligand, radioligand binding; conditions = 10 µM, SafetyScreen44 norepinephrine transporter replicate 2; scale = lower = stronger displacement; endpoint = remaining binding; value = 106%
SMILES = CSCC[C@@H](N)C(=O)N[C@H](C)C(=O)N[C@H](C)C(=O)N[C@@H](C(=O)N[C@H](C)C(=O)NCC(=O)N[C@H](CC(C)C)C(=O)N[C@H](Cc1ccc(O)cc1)C(=O)NCC(=O)N[C@H](CC(C)C)C(=O)NCC(=O)N[C@H](CCC(=O)O)C(=O)N[C@H](CC(=O)O)C(=O)N[C@H](CCCNC(=N)N)C(=O)N[C@H](CCC(N)=O)C(=O)N[C@H](Cc1c[nH]cn1)C(=O)N[C@H](CCCNC(=N)N)C(=O)N[C@H](CCCCN)C(=O)N[C@H](CCCCN)C(=O)N[C@H](CCC(N)=O)C(N)=O)C(C)C; target = Sh, DEL6-46 (Drosophila melanogaster, UniProt P08510); assay = ion current, blocker, inside-out patch clamp; conditions = +30 mV; endpoint = Hill coefficient; value = 0.92
SMILES = CCCCNC(=O)c1ccc2nc(CC)c(N(C)Cc3ccc(OC)cc3)n2c1; target = ache; assay = inhibitor; conditions = 5 µM; endpoint = activity; value = active
SMILES = COC(=O)[C@@H](NC(=O)c1nn(Cc2ccc(F)cc2)c2cc(OCCCCNC(=N)N)ccc12)C(C)(C)C; target = CNR1 (Homo sapiens, UniProt P21554); assay = GTPase; scale = reference: FUB; endpoint = Gi GTP turnover maximum; value = 110%
SMILES = CS(C)(=O)=Nc1ccc(-c2ccc(-c3nc4cc(O[C@@H]5CO[C@H]6[C@@H]5OC[C@H]6O)[nH]c4cc3F)cc2)cc1; target = androgen receptor human; assay = binding; conditions = 10 µM; endpoint = inhibition; value = -14%
SMILES = CN(C)[C@H]1C[C@@]23CC[C@@]4(O2)C(=CC[C@]2(C)[C@@H](c5ccc6ccncc6c5)CC[C@H]24)C=C3[C@@H](O)[C@@H]1O; target = NEK3 (Homo sapiens, UniProt P51956); assay = ATP probe labelling, inhibitor, KiNativ profiling; conditions = 0.1 µM; endpoint = inhibition; value = 3.8%
SMILES = CCOC(=O)[C@@H]1Cc2c(cc([N+](=O)[O-])cc2[N+](=O)[O-])[C@H](O)[C@]12C(=O)Nc1ccc(Br)cc12; target = BRAF (Homo sapiens, UniProt P15056, V600E); assay = binding, competition with immobilised ligand; conditions = 0.1 µM; endpoint = remaining binding; value = 72%
SMILES = N[C@H](C(=O)N1CCCC1)C1CCN(c2nccc3c(-c4ncc(Cl)cc4Cl)cccc23)CC1; target = PADI1 (Homo sapiens, UniProt Q9ULC6); assay = enzyme activity; conditions = 0.0983 µM, with: Ca2+ 0.25 mM; endpoint = kcat; value = 0.225 s⁻¹ and 0.233 s⁻¹
SMILES = C[C@H](NCc1ccc(-c2ccc(C(F)(F)F)cc2)cc1)C(N)=O; target = PIK3CG (Homo sapiens, UniProt P48736); assay = cell-free assay, competition with immobilised ligand; conditions = 1 µM; endpoint = inhibition; value = 0%
SMILES = C[n+]1cn([C@@H]2O[C@H](COP(=O)([S-])OP(=O)(O)OP(=O)(O)OP(=O)([S-])OC[C@H]3O[C@@H](n4c[n+](C)c5c(O)nc(N)nc54)[C@H](O)[C@@H]3O)[C@@H](O)[C@H]2O)c2nc(N)nc(O)c21 (some centres unmarked); target = mRNA decapping complex subunit 2 (dcp2, Schizosaccharomyces pombe, UniProt O13828); assay = single-turnover kinetics; test system = 29-nt native-capped RNA substrate; conditions = 0.5 mM; endpoint = kmax; value = 0.15 ± 0.01 min⁻¹
SMILES = CC[C@H](C)[C@H](NC(=O)[C@H](Cc1ccc(O)cc1)NC(=O)[C@@H]1CCCN1C(=O)[C@H](C)NC(=O)[C@H](CC(C)C)NC(=O)[C@H](C)NC(=O)[C@H](CO)NC(=O)CNC(=O)[C@H](Cc1c[nH]c2ccccc12)NC(=O)CNC(=O)[C@H](Cc1ccccc1)NC(=O)[C@H](C)NC(=O)[C@H](CC(C)C)NC(=O)[C@H](CO)NC(=O)[C@H](CCSC)NC(=O)[C@H](Cc1ccc(O)cc1)NC(=O)[C@H](CCC(N)=O)NC(=O)[C@@H](NC(=O)[C@H](CCCNC(=N)N)NC(=O)[C@@H]1CCCN1C(=O)[C@@H](NC(=O)[C@@H](NC(=O)[C@@H]1CCCN1C(=O)CN)C(C)C)C(C)C)[C@@H](C)O)C(=O)N1CCC[C@H]1C(=O)O; target = TP53 (Homo sapiens, UniProt P04637, R175H); assay = degrader, Western blot; test system = H1299 cotransfected; conditions = concentration not given, 24 h; endpoint = protein level; value = decreased
SMILES = C[C@@H](CNCc1cc(Cl)cc(Cl)c1)CNc1nc2nc(F)ccc2[nH]1; target = MARS2 (Homo sapiens, UniProt Q96GW9); assay = enzyme activity; scale = reference: human IC50 over T. brucei IC50; endpoint = selectivity ratio; value = > 2
SMILES = O=C(NC1CCN(c2ncnc3[nH]cnc23)CC1)c1cccc(NS(=O)(=O)c2ccc(C(F)(F)F)cc2)c1; target = Replicase polyprotein 1ab, nsp14 (Human coronavirus OC43, UniProt P0C6X6); assay = enzyme activity; conditions = 0.04883 µM; endpoint = inhibition; value = 11.8%
SMILES = O=C(N[C@@H]1c2ccccc2C[C@H]1N1CCCC1)c1ccc(-c2ccnc3[nH]ccc23)nc1; target = Tyrosine-protein kinase JAK1, JH1 (JAK1, Homo sapiens, UniProt P23458); assay = binding, competition with immobilised ligand; conditions = 3 µM; endpoint = remaining binding; value = 0%
SMILES = CC(C)CC(O)(CC(C)C)c1cn(C(=O)N2CCCC2)nn1; target = Patatin-like phospholipase domain-containing protein 6 (Mus musculus, UniProt Q3TRM4); assay = probe labelling, inhibitor, competitive ABPP-SILAC, item: Pnpla6; test system = mouse T cells; conditions = concentration not given, 4 h, in situ, protein level; scale = reference: treated over DMSO, lower = more inhibition; endpoint = SILAC ratio; value = 1.49
SMILES = O=C(O)C(/C=C/c1ccc(Cl)cc1)=N\Nc1nc(-c2ccc(F)cc2)cs1; target = ache; assay = Ellman; scale = reference: IC50 BChE over IC50 AChE; endpoint = selectivity index; value = 7.48
SMILES = CC(C)[C@H]1NC(=O)C[C@H]2/C=C/CCSSC[C@@H](NC1=O)C(=O)N[C@H](Cc1cccc3ccccc13)C(=O)NCC(=O)O2; target = WNK1 (Homo sapiens, UniProt Q9H4A3); assay = enzyme activity, inhibitor; conditions = 10 µM; endpoint = inhibition; value = 0.9%
SMILES = O=C(Cc1ccc(Cl)c(Cl)c1)N1CCN(CCO)[C@@H]2COC[C@H](N3CCCC3)[C@H]21 (relative stereo); target = OPRK1 (Homo sapiens, UniProt P41145); assay = agonist; conditions = 0.3333 h; endpoint = Emax; value = 89%
SMILES = CC(=O)c1ccc(/N=N/c2cccc([B-](F)(F)F)c2)cc1.[K+]; target = Chymotrypsinogen A (Bos taurus, UniProt P00766); assay = enzyme activity, inhibitor; conditions = with: Suc-AAPF-AMC; scale = reference: Ki cis over Ki trans; endpoint = switching factor; value = 2.4 ± 0.5
SMILES = O=C(O)c1cccc(CP(=O)(O)O)n1; target = VIM-2 (Escherichia coli, UniProt Q5U7L7); assay = inhibitor; conditions = with: nitrocefin; endpoint = dissociation half-life; value = 7.7 ± 0.3 min
SMILES = C#CCCCCOc1ccc2c(c1)CCCN2C(=O)CCl; target = ALDH5A1 (Homo sapiens, UniProt P51649); assay = mass spectrometry profiling; test system = H460 cell lysate; conditions = 100 µM over 10 µM, UniProt P51649; scale = reference: high over low concentration; endpoint = reactivity ratio; value = 1.54
SMILES = CC(=O)N[C@@H](CCC(N)=O)C(=O)N[C@@H](CC1CCCCC1)C(=O)N[C@@H](CNC(=O)CCl)C(=O)N[C@@H](CC(C)C)C(=O)N[C@@H](Cc1ccccc1)C(=O)O; target = Beta sliding clamp (Escherichia coli, UniProt P0A988, H175G); assay = binding, isothermal titration calorimetry; conditions = concentration not given, 25 °C, H175G mutant peptide; scale = reference: wild-type peptide; endpoint = KD fold reduction; value = 4 fold
SMILES = CON(C(=O)c1cn(C)nc1C(F)F)C(C)Cc1c(Cl)cc(Cl)cc1Cl (centres unmarked); target = SDHD/SDHC/SDHB (Sus scrofa, UniProt A5GZW8+D0VWV4+Q007T0); assay = enzyme activity, inhibitor, DCIP reduction; test system = pig; conditions = 0.1 µM, with: DCIP 5 µM; endpoint = reaction velocity; value = 0.00238 µM/s and 0.00279 µM/s
SMILES = Cc1ccc(N2CC3CCC(C2)N3C)cc1C(=O)N[C@H](C)c1cc(-c2cnn(C)c2)nc2ccccc12; target = USP7 (Homo sapiens, UniProt Q93009); assay = enzyme activity; conditions = 30 µM; endpoint = remaining activity; value = 97%

A few entries again:
SMILES = O=C1NC(=O)c2c1c1cc(F)c[n+]3c1c1c2c2cc(O)ccc2[n]1[Ru-4]312([N]=C=S)[S+]3CC[S+]1CC[S+]2CC3 (centres unmarked); target = PRKCD (Homo sapiens, UniProt Q05655); assay = enzyme activity; conditions = 100 nM, human enzyme, with: 10 µM ATP; scale = reference: untreated; endpoint = remaining activity; value = 73%
SMILES = CC(=O)c1ccc(/N=N/c2cccc([B-](F)(F)F)c2)cc1.[K+]; target = Chymotrypsinogen A (Bos taurus, UniProt P00766); assay = enzyme activity, inhibitor; conditions = with: Suc-AAPF-AMC; scale = reference: Ki cis over Ki trans; endpoint = switching factor; value = 2.4 ± 0.5
SMILES = Cc1ccc(N2CC3CCC(C2)N3C)cc1C(=O)N[C@H](C)c1cc(-c2cnn(C)c2)nc2ccccc12; target = USP7 (Homo sapiens, UniProt Q93009); assay = enzyme activity; conditions = 30 µM; endpoint = remaining activity; value = 97%
SMILES = CC(=O)N[C@@H](CCC(N)=O)C(=O)N[C@@H](CC1CCCCC1)C(=O)N[C@@H](CNC(=O)CCl)C(=O)N[C@@H](CC(C)C)C(=O)N[C@@H](Cc1ccccc1)C(=O)O; target = Beta sliding clamp (Escherichia coli, UniProt P0A988, H175G); assay = binding, isothermal titration calorimetry; conditions = concentration not given, 25 °C, H175G mutant peptide; scale = reference: wild-type peptide; endpoint = KD fold reduction; value = 4 fold
